Measured values pooled from the literature.
Each line is one published result; not all experiments were run side by side. Values joined by “and” are separate records of one study, mostly repeats; a detail may differ. Numbers after ± are the reported error.

CC(=O)N[C@H](C(=O)N[C@@H](CCCNC(=N)N)C(=O)N[C@@H](CCCCN)C(=O)N[C@@H](CCCNC(=N)N)C(=O)N[C@H](C(=O)N[C@@H](CC(C)C)C(=O)N[C@@H](CCCNC(=N)N)C(=O)N[C@]1(C)CCCC=CCCC[C@@](C)(C(=O)N[C@@H](CCC(=O)O)C(=O)N[C@@H](CCCNC(=N)N)C(=O)N[C@@H](CCC(=O)O)C(=O)N[C@@H](CC(C)C)C(=O)N[C@H](C(=O)N[C@@H](CCC(=O)O)C(N)=O)C(C)C)NC(=O)[C@H](CC(C)C)NC(=O)[C@H](CC(C)C)NC1=O)[C@@H](C)O)C(C)C  IC50 (H1975 (EGFR L858R/T790M); cell viability, ATP luminescence; 18 h): > 100 µM
[CH3][Ti+2][O]C(=O)c1ccc([S][Au][PH](c2ccccc2)(c2ccccc2)[c-]2cccc2)cc1.[Fe+2].c1cc[cH-]c1.c1cc[cH-]c1.c1cc[cH-]c1  IC50 (renal proximal tubule cells; cytotoxicity, XTT; 24 h): 4.19 ± 0.11 µM
Cc1ccc(C(C)C)cc1.Cc1ccc(C(C)C)cc1.Cc1ccc(C(C)C)cc1.Cc1ccc(C(C)C)cc1.O=S(=O)(O)C(F)(F)F.O=S(=O)(O)C(F)(F)F.O=S(=O)(O)C(F)(F)F.O=S(=O)(O)C(F)(F)F.c1ccc2c3c4ccccc4c(c2c1)-c1cn(nn1)-c1cc[n+](cc1)[Ru-]1[O]c2ccc4c5c(ccc(c25)=[O+]1)=[O+][Ru-]([O]4)[n+]1ccc(cc1)-n1cc(nn1)-c1c2ccccc2c(c2ccccc12)-c1cn(nn1)-c1cc[n+](cc1)[Ru-]1[O]c2ccc4c5c(ccc(c25)=[O+]1)=[O+][Ru-]([O]4)[n+]1ccc(cc1)-n1cc-3nn1  IC50 (HCT-15; cell growth or viability, MTT; 24 h): 1.8 µM
CC(C)C12OC1C1OC13C1(C)CCC4=C(COC4=O)C1CC1OC13C2OC(=O)CCC(=O)OC1OC(CO)C(O)C(O)C1O (stereo not drawn)  IC50 (primary normal human cells; cell viability, XTT): 4.16 µM
CC[C@H](C)[C@@H]([C@@H](CC(=O)N1CCC[C@H]1[C@H](OC)[C@@H](C)C(=O)N[C@H](C)[C@@H](O)c1ccccc1)OC)N(C)C(=O)[C@@H](NC(=O)[C@H](C(C)C)N(C)C(=O)OCc1ccc(NC(=O)[C@H](CCCNC(N)=O)NC(=O)[C@@H](NC(=O)CCCc2cn(CC(=O)N[C@@H](CCCCNC(=O)CC[C@H](NC(=O)c3ccc(NCc4cnc5nc(N)[nH]c(=O)c5n4)cc3)C(=O)O)C(=O)NCCCC[C@H]3NC(=O)[C@H](CCCCN)NC(=O)[C@H](CCCNC(N)=O)NC(=O)[C@H](Cc4ccc(O)cc4)NC(=O)[C@@H](NC(=O)[C@H](Cc4ccc5ccccc5c4)NC(=O)[C@H](CCCNC(=N)N)NC(=O)[C@@H](N)CCCNC(=N)N)CSSC[C@@H](C(=O)N[C@@H](CCCNC(=N)N)C(N)=O)NC(=O)[C@H](CCCNC(N)=O)NC(=O)[C@H](CCCNC(=N)N)NC(=O)[C@H](Cc4ccc(O)cc4)NC(=O)[C@@H]4CCCN4C3=O)nn2)C(C)C)cc1)C(C)C  IC50 (4T1; cell growth or viability, CCK-8): 0.489 µM
Cc1cc(Oc2nc(N3CC[C@@H](c4ccncc4)C3)ncc2F)[nH]n1  IC50 (EFO-21; cell proliferation): 75.9 µM
COc1ccccc1-c1ccncc1C(=O)Nc1nnc(OCc2ccc(Cl)cc2)s1  IC50 (Brca1 wild-type MEFs; colony survival): ~12 µM
CCOc1ccccc1-n1c(CN2CCNCC2)nc2ccccc2c1=O  IC50 (LN-18; cell growth or viability; 72 h): 0.516 µM
Cc1ccccc1/C=C/C(=O)N[C@H]1COC(=O)[C@H](CC(=O)O)NC(=O)[C@H]([C@@H](O)C(=O)c2ccccc2N)NC(=O)[C@@H](Cc2ccccc2)NC(=O)[C@@H](NC(=O)[C@@H](Cc2ccccc2)NC(=O)CN)[C@@H](C)OC1=O  IC50 (HCT-116): > 20 µM
C#Cc1ccc(N2CCOCC2)c(/C=N/NC(=O)CCl)c1  IC50 (AMO1; cell growth or viability): 0.343 µM
CC(=O)N[C@H](C(=O)N[C@@H](CCCNC(=N)N)C(=O)N[C@@H](CCCCN)C(=O)N[C@@H](CCCNC(=N)N)C(=O)N[C@H](C(=O)N[C@@H](CC(C)C)C(=O)N[C@@H](CCCNC(=N)N)C(=O)N[C@@H](CCCNC(=N)N)C(=O)N[C@]1(C)CCCC=CCCC[C@@](C)(C(=O)N[C@@H](CCCNC(=N)N)C(=O)N[C@@H](CCC(=O)O)C(=O)N[C@@H](CC(C)C)C(=O)N[C@H](C(=O)N[C@@H](CCC(=O)O)C(N)=O)C(C)C)NC(=O)[C@H](CCC(N)=O)NC(=O)[C@H](CC(C)C)NC1=O)[C@@H](C)O)C(C)C  IC50 (H2030 (wild-type EGFR); cell viability, ATP luminescence; 18 h): 67.5 ± 7.32 µM
CC(=O)N[C@H](C(=O)N[C@@H](CCCNC(=N)N)C(=O)N[C@@H](CCCCN)C(=O)N[C@@H](CCCNC(=N)N)C(=O)N[C@H](C(=O)N[C@@]1(C)CCCC=CCCC[C@@](C)(C(=O)N[C@@H](CCC(N)=O)C(=O)N[C@@H](CCC(=O)O)C(=O)N[C@@H](CCCNC(=N)N)C(=O)N[C@@H](CCC(=O)O)C(=O)N[C@@H](CC(C)C)C(=O)N[C@H](C(=O)N[C@@H](CCC(=O)O)C(N)=O)C(C)C)NC(=O)[C@H](CC(C)C)NC(=O)[C@H](CCCNC(=N)N)NC(=O)[C@H](CCCNC(=N)N)NC1=O)[C@@H](C)O)C(C)C  IC50 (H2030, wild-type EGFR): > 50 µM and > 100 µM
C1N2CN3CN1CP(C2)C3.COc1ccc(C(O)=CC(=O)c2ccc(C(C)(C)C)cc2)cc1.Cc1ccc(C(C)C)cc1.[Ru+2]  IC50 (HL-60; phototoxicity; light over 450 nm, 29.1 J/cm2): 0.14 µM
CC(=O)N[C@H](C(=O)N[C@@H](CCCNC(=N)N)C(=O)N[C@@H](CCCCN)C(=O)N[C@@H](CCCNC(=N)N)C(=O)N[C@H](C(=O)N[C@@H](CC(C)C)C(=O)N[C@@H](CCCNC(=N)N)C(=O)N[C@@]1(C)CCCC=CCCC[C@@](C)(C(=O)N[C@@H](CCCNC(=N)N)C(=O)N[C@@H](CCC(=O)O)C(=O)N[C@@H](CC(C)C)C(=O)N[C@H](C(=O)N[C@@H](CCC(=O)O)C(N)=O)C(C)C)NC(=O)[C@H](CCC(N)=O)NC(=O)[C@H](CC(C)C)NC(=O)[C@H](CC(C)C)NC1=O)[C@@H](C)O)C(C)C  IC50 (H1975 (EGFR L858R/T790M); cell viability, ATP luminescence; 18 h): 4.68 ± 1.31 µM
Cc1ccc(C(C)C)cc1.O=C(N=P(c1ccccc1)(c1ccccc1)c1ccccc1)c1ccccn1.[Cl-].[Cl][Ru+]  IC50 (MCF-10A; cell growth or viability, MTT): 2.52 µM

For quick reference, copied from above:
CCOc1ccccc1-n1c(CN2CCNCC2)nc2ccccc2c1=O  IC50 (LN-18; cell growth or viability; 72 h): 0.516 µM
Cc1ccccc1/C=C/C(=O)N[C@H]1COC(=O)[C@H](CC(=O)O)NC(=O)[C@H]([C@@H](O)C(=O)c2ccccc2N)NC(=O)[C@@H](Cc2ccccc2)NC(=O)[C@@H](NC(=O)[C@@H](Cc2ccccc2)NC(=O)CN)[C@@H](C)OC1=O  IC50 (HCT-116): > 20 µM
